# Published values gathered from unrelated publications.
# Each numbered part is a random draw from the data of one study; scales do not carry over between parts. Positions count from the first letter of the parent shown.

# Series 1
# Target: RING finger protein unkempt homolog, zinc fingers 1-6, SBP tag (UNK, Homo sapiens, UniProt Q9C0B0, residues 30-357)
# UniProt Q9C0B0, sequence (30-357, looked up): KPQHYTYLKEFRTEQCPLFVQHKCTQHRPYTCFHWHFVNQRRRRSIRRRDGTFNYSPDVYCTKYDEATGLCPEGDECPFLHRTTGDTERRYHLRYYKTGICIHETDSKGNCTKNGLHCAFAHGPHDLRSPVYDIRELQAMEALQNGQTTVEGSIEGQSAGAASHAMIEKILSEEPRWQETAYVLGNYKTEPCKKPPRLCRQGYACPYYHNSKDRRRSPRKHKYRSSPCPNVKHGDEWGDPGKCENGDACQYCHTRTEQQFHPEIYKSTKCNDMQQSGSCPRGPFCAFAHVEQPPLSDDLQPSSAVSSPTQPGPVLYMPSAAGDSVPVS
# Method: RNA Bind-n-Seq
# Form: RNA
# Sample: in vitro
# Tested at: 100 nM
# Notes: RNA with constant flanks, vertebrate orthologous sites, ends assumed
# Relative to: input RNA pool
# Reading: higher = stronger binding
# Constant ends, left off below: GGGAGUUCUACAGUCCGACGAUC … CAACAGAGGAUUGAGCAUCA
Sequence,bound/input enrichment [ratio]
AGGAAAUGCUGGCUGCAAACCCUCAGGAUCGUCCAGAUGCUUUUGAACUAGAACUCAGAUUAGUACAAAUUGCAUUUAAAGAUAGCAGCUGGGAAACGUGACACAUAUAUUGUUUGCAAA,0.746
GUGAGGGUCUACUGACCACUCACUAUUAUGUCUGGUAUCUGUAAACACUCUUUUUGUUCUUAGUCUUUCUCUUGUAUAAUUGAUGUCCUUUAAAAUUGUUAAUGUAUAACAGGGCUUAUA,0.974
CCCAGUUUGUAUGUACAUUAUUCAUAUUCCUCUCUGUUUUGUUGGAAAAAGAAAGACAUUUUAACCUUUUUUAAGGUUGUUGAUUUAAUUUCAUGUUAUUAGGUUGCAUGAUGUUGCCCU,0.248
CUUCCUCCAACUUCGAUUUUCAGGUUGUAGCUGAUCCUUUUUUUUUCCCCCCAUUUAAACUGCUCUUUUGCUUUCUCCCUCCACUUCAAAUACACAAGUUCUUCCCUUUUGCAUCUUUGU,1.26
UUUUAUUGAUCAGGUCUGUAAAUGUGUACUAAAAAAAUCAGAGUUUAUUUAUAAACAGAAUAGUUUAUUUAAAGAGAAGGUCUUUCUUCAUUGAUAUUGUGGUAUGCAUUAAUUCCAUUU,0.168
GGAAAGUUACAGAUCAGACAGUGAAAGUAGGAGCACAGGAUCCUGGUUGUCAUCCUCUUUGAGGAACAGAUGUACACCUCUCUUUUCCAGAAGAAGAAGAGAAGGAAGAGAUGAAUCUGC,0.389
CAGGGUGGGACCUGGGCCCCACCGCUCAGUGGCCCACUGGCCGUCUCAGCCAAGCCACUUUAGGUCCAUUUUUUAUUUUAACAAUGCUCUUCCAACCUGUGCAUAAGCCUGAGAUUUGGA,1.32
AGCAACUCAAGGAUUCAGGACUGGUUUUACAAAUAUACCAAGUAGAUAUGGAACUAACAAUAGAAUUGGACAACCAAGACCAUGAUAUGCUCUAAUUUAAUUUAUUUUUAUCAGGAAUAU,0.485

# Series 2
# Target: Prothrombin, mature alpha-thrombin (F2, Homo sapiens, UniProt P00734)
# Method: aptamer microarray, sandwich
# Form: DNA with 2'F-ANA
# Sample: in vitro
# Tested at: 200 nM
# Notes: whole 15-mer aptamer, many near background
# Together with: Cy3 exosite-II aptamer, 400 nM
# Reading: higher = stronger binding
# Sequence: GGTTGGTGTGGTTGG
Modification,mean fluorescence intensity [a.u.]
2'F-ANA at 1 8 10 14,73.3
2'F-ANA at 1 2 3 4 7 8 10 13 14 15,86.7
2'F-ANA at 2 4 7 12 13,456
2'F-ANA at 1 4 5 6 12 13 14,45.5
2'F-ANA at 5 7 8 10 15,46.7
2'F-ANA at 4 5 9 12 15,138
2'F-ANA at 1 2 5 6 9 10 12 14 15,46
2'F-ANA at 3 4 6 9 10 11,235

# Series 3
# Target: ABI1, truncated, D143A, DHFR fusion (Arabidopsis thaliana, UniProt P49597)
# Method: DHFR PCA, dose-response
# Sample: yeast
# Notes: Hill fit, mean, not affinity
# Together with: (+)-ABA, dose series
# Reading: lower = more sensitive
# Starting sequence: PYL1, truncated, DHFR fusion (Arabidopsis thaliana, UniProt Q8VZS8); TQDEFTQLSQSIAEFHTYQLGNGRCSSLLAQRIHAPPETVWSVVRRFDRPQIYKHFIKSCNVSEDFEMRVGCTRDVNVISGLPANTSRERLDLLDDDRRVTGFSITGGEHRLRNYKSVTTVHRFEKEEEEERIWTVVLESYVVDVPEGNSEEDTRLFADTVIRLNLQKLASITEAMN
Substitution,ABA EC50
E127Q,2.61 µM
R111K,9.54 µM
S26C,2.75 µM
S171F,3.1 µM
E109S,3.32 µM
L8Q,21.2 µM
E127F,2.45 µM
G81M,329 µM

# Further values, each from its own experiment
# Starting sequence: viral docking peptide; TSVRRALFTGGSD; partner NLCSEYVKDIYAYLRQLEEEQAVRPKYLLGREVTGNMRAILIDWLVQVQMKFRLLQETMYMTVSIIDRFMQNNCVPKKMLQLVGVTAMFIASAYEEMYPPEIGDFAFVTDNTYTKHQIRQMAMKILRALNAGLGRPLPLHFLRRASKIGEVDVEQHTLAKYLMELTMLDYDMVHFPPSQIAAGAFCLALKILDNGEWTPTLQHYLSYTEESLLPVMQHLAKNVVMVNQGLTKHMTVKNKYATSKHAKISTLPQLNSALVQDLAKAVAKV
Substitution,target,test,system,conditions,scale,quantity,value
A6T,"CCNB1, cyclin fold, Cln2 fusion (human)","yeast growth competition, sequencing",yeast,strong parent motif,"relative to: not given, higher = stronger binding",normalised enrichment score,0.609

# For quick reference, copied from above (series 1):
Sequence,bound/input enrichment [ratio]
GUGAGGGUCUACUGACCACUCACUAUUAUGUCUGGUAUCUGUAAACACUCUUUUUGUUCUUAGUCUUUCUCUUGUAUAAUUGAUGUCCUUUAAAAUUGUUAAUGUAUAACAGGGCUUAUA,0.974
AGGAAAUGCUGGCUGCAAACCCUCAGGAUCGUCCAGAUGCUUUUGAACUAGAACUCAGAUUAGUACAAAUUGCAUUUAAAGAUAGCAGCUGGGAAACGUGACACAUAUAUUGUUUGCAAA,0.746
CCCAGUUUGUAUGUACAUUAUUCAUAUUCCUCUCUGUUUUGUUGGAAAAAGAAAGACAUUUUAACCUUUUUUAAGGUUGUUGAUUUAAUUUCAUGUUAUUAGGUUGCAUGAUGUUGCCCU,0.248
